Assay results of several laboratories.
Parts stem from different laboratories: compare values within a part only. Values joined by “and” are separate records of one study, mostly repeats; a detail may differ.
Sequence of UniProt Q13464 (whole entry, looked up): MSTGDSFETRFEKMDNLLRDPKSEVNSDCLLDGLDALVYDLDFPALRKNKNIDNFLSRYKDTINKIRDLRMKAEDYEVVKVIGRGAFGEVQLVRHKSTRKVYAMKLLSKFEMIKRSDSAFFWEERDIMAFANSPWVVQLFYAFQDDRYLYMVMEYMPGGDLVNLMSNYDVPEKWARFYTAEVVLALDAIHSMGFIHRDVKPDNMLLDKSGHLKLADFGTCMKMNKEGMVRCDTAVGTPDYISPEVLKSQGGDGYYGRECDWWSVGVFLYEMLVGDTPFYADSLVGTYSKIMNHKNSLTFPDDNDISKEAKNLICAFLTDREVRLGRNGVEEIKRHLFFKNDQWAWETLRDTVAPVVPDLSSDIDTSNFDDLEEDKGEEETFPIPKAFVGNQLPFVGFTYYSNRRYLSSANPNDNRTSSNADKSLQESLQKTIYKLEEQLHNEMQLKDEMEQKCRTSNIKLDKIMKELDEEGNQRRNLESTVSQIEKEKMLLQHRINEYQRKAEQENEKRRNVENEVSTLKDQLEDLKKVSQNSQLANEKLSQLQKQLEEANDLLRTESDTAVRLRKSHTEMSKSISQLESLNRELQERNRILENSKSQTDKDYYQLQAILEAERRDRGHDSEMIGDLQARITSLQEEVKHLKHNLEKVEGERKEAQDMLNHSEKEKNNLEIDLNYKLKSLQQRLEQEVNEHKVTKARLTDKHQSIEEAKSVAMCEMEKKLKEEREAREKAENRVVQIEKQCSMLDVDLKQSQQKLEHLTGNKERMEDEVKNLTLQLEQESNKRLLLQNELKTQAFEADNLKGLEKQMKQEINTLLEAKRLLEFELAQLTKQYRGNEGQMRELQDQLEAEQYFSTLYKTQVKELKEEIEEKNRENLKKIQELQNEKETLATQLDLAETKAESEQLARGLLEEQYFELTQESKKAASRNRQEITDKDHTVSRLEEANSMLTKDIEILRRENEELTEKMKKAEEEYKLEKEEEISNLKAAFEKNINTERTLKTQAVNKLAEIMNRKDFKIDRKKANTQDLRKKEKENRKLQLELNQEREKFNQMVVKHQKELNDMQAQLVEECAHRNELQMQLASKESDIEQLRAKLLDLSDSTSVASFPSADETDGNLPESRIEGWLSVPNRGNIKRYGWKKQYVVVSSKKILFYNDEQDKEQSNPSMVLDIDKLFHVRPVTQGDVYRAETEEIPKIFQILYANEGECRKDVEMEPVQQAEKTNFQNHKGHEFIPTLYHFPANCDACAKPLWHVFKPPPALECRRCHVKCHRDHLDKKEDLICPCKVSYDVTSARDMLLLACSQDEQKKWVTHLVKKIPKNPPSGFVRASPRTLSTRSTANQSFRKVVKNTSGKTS
Sequence of UniProt Q86UE8 (whole entry, looked up): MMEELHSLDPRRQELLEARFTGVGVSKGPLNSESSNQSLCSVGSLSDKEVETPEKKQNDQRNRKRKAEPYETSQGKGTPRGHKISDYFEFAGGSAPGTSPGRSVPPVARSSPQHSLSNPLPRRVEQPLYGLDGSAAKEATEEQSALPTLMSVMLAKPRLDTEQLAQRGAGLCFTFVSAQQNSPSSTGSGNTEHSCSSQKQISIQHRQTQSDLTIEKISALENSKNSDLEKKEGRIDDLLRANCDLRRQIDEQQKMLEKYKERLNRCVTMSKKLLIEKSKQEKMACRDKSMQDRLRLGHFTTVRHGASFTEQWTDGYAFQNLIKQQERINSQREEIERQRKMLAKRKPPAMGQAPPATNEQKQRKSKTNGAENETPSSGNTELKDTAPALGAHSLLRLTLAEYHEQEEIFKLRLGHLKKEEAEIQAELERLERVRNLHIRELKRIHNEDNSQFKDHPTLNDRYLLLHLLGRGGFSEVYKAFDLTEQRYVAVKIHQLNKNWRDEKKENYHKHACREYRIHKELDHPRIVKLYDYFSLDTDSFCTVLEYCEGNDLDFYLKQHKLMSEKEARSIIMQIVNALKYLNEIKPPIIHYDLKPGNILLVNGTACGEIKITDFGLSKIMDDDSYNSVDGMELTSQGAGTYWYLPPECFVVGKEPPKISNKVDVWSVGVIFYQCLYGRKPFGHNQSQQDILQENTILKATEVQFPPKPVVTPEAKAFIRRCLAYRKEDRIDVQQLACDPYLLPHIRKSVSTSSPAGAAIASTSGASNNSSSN
Sequence of UniProt P49761 (whole entry, looked up): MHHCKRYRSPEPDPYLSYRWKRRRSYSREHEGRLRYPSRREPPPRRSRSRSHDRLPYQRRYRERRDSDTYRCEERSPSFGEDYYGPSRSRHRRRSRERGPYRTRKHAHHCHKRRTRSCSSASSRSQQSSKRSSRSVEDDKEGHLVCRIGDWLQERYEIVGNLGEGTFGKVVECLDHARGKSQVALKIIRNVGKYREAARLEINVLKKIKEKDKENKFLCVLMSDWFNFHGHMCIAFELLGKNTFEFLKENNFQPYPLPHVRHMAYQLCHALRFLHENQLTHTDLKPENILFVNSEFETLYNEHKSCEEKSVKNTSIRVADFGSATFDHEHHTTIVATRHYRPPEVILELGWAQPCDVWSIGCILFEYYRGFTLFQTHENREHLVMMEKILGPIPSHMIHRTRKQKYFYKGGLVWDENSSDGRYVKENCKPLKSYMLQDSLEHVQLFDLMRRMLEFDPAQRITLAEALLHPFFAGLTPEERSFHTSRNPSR
Sequence of UniProt Q9H4B4 (whole entry, looked up): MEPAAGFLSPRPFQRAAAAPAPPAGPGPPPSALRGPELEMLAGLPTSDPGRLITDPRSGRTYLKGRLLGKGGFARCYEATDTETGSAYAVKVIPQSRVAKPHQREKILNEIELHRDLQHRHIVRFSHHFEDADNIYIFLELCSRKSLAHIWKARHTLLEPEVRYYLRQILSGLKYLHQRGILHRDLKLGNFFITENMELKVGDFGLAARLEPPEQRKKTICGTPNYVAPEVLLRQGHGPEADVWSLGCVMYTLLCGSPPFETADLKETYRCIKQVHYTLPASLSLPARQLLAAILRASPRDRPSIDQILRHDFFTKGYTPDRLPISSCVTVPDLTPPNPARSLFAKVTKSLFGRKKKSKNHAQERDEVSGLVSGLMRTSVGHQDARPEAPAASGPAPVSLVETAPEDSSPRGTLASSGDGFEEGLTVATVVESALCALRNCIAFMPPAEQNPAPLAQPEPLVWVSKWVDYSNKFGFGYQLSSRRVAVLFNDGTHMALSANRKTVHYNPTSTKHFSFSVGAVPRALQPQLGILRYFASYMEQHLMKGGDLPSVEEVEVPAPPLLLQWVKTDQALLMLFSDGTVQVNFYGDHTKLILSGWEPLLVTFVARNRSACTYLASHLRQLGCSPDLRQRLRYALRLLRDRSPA
Sequence of UniProt Q16832 (whole entry, looked up): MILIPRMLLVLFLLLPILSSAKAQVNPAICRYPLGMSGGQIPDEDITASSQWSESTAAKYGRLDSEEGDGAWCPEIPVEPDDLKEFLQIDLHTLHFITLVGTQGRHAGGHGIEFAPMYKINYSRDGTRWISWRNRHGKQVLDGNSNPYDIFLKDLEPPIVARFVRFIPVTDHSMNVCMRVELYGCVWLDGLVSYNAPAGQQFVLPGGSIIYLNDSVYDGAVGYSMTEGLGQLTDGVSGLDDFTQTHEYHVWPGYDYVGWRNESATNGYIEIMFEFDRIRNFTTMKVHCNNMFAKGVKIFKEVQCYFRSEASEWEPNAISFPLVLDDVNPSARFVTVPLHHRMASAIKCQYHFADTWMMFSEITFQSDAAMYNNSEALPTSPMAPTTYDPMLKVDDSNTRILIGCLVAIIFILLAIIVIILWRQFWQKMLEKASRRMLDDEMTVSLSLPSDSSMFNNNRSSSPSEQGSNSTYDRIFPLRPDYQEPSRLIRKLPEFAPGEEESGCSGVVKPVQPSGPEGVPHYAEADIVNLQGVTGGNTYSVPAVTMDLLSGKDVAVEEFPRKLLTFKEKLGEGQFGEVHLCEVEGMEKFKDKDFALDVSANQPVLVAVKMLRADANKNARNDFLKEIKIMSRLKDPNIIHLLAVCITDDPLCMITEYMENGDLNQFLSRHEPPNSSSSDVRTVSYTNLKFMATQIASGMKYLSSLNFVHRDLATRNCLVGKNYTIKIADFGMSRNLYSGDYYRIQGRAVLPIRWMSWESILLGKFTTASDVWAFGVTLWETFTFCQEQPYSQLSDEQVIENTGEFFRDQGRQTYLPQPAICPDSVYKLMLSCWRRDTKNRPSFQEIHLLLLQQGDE
Sequence of UniProt Q7KZI7 (whole entry, looked up): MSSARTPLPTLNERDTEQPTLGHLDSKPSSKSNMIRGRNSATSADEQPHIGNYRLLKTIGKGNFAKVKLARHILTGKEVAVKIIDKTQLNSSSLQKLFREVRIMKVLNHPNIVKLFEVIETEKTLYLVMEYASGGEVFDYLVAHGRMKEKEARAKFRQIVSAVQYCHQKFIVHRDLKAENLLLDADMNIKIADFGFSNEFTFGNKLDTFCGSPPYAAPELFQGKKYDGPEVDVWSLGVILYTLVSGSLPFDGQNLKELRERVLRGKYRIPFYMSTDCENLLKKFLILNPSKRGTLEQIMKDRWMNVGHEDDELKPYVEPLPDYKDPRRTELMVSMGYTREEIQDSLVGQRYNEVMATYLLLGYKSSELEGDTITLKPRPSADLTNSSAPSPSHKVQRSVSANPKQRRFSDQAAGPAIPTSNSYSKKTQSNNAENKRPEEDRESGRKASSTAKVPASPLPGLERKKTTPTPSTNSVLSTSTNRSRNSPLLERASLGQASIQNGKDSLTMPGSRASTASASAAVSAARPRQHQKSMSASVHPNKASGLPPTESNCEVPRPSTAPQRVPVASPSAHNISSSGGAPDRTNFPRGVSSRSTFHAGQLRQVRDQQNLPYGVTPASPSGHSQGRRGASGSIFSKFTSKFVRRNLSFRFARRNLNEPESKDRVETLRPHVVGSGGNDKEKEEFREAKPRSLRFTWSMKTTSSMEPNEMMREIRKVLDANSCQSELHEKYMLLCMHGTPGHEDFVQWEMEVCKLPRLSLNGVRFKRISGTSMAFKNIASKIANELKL

Series 1
Cell line: HaCaT
Concentration: 100 µM
Time: 60 h
SMILES | viability [%]
CN(C)c1ccc(O)c2c1C[C@H]1C[C@H]3[C@H](N(C)C)C(O)=C(C(N)=O)C(=O)[C@@]3(O)C(O)=C1C2=O | 110
CC(=O)O[C@@]12CO[C@@H]1C[C@H](O)[C@@]1(C)C(=O)[C@H](O)C3=C(C)[C@@H](OC(=O)[C@H](O)[C@@H](NC(=O)OC(C)(C)C)c4ccccc4)C[C@@](O)([C@@H](OC(=O)c4ccccc4)[C@H]21)C3(C)C | 21.5
NCCNc1ccc(NCCN)c2c1C(=O)c1ccncc1C2=O | 13.5
OC1(c2ccc(Cl)c(C(F)(F)F)c2)CCN(CCCC(c2ccc(F)cc2)c2ccc(F)cc2)CC1 | 17.8

Series 2
SMILES: CC(=O)N[C@@H](Cc1c[nH]c2ccccc12)C(=O)N[C@@H](CCC(=O)C=[N+]=[N-])C(=O)OC(C)C
Host: mice, MC-38 tumour rechallenge
setting | tumour volume
0.26 mg/kg, day 60 after injection | 0 mm3
1 mg/kg, day 32 after injection | 0 mm3
0.26 mg/kg, day 43 after injection | 0 mm3

Series 3
Structure (SMILES): c1ccc(Oc2ccc(Nc3c4c(nc5ccccc35)CCC4)cc2)cc1
Organism: Leishmania donovani
assay | system | setting | inhibition
parasite killing | DD8, promastigotes | 1.66 µM, 24 h | 28% and 29% and 27%
parasite killing | DD8, promastigotes | 0.033 µM, 24 h | 4% and 5%
parasite growth, high-content imaging | MHOM/IN/80/DD8, amastigotes in THP-1 cells | 20 µM | 100%
parasite killing | DD8, intracellular amastigotes | 8 µM, 48 h | 89% and 80% and 91%

Series 4
Host: human
Matrix: microsomes or S9
Concentration: 2 µM
Time: 0.5 h
SMILES | remaining compound [%]
CN(C)S(=O)(=O)CCNCc1ccc(-c2ccccc2)cc1 | 135
CN(C)CC(C)(C)CNc1ncnc2c1cnn2-c1ccccc1 | 34.3
CCN(CC)CCCNc1sc(S(C)(=O)=O)nc1S(=O)(=O)c1ccc(C)cc1 | 75.4
Cc1ccc(N(C(C)C(=O)N2CCN(C)CC2)S(C)(=O)=O)cc1C (stereo not drawn) | 81.2

Series 5
Structure (SMILES): CC(=O)C1=C(C)N(c2cccc(C(F)(F)F)c2)C(=O)N[C@@H]1c1ccc(C#N)nc1
Observed: cell-free assay
Technique: competition with immobilised ligand
Concentration: 1 µM
target | remaining binding [%]
STK32A (Homo sapiens, UniProt Q8WU08) | 100
PIK3C2G (Homo sapiens, UniProt O75747) | 78.2
CAMK2G (Homo sapiens, UniProt Q13555) | 100
FLT3 (Homo sapiens, UniProt P36888, D835V) | 64.2

Series 6
Organism: Sarcocystis neurona
Observed: parasite growth
Concentration: 10 µM
Time: 96 h
Notes: second screen
Baseline: untreated
Compound | log2 fold change
Cc1cn([C@H]2C[C@H](N=[N+]=[N-])[C@@H](CO)O2)c(=O)[nH]c1=O | 0.35
CCc1nn(CCCN2CCN(c3cccc(Cl)c3)CC2)c(=O)n1CCOc1ccccc1 | -1.28
Cc1cccc(Nc2ccccc2C(=O)O)c1C | 0.19

Series 7
SMILES: O=C(O)c1ccc2c3c1cccc3c(=O)n1c3ccccc3nc21
Observed: enzyme activity
Action: inhibitor
Concentration: 0.5 µM
Baseline: control
target | remaining activity
CLK3 (Homo sapiens, UniProt P49761) | 95.4%
MAPK11 (Homo sapiens, UniProt Q15759) | 105%
GRK4 (Homo sapiens, UniProt P32298) | 95.5%
MET (Homo sapiens, UniProt P08581) | 104%
CDC42BPB (Homo sapiens, UniProt Q9Y5S2) | 109%
MARK4 (Homo sapiens, UniProt Q96L34) | 88.4%
TLK2 (Homo sapiens, UniProt Q86UE8) | 91.2%
MINK1 (Homo sapiens, UniProt Q8N4C8) | 79.8%
PLK3 (Homo sapiens, UniProt Q9H4B4) | 93.9%
RPS6KA4 (Homo sapiens, UniProt O75676) | 110%
DCLK2 (Homo sapiens, UniProt Q8N568) | 96.7%
DDR2 (Homo sapiens, UniProt Q16832) | 96.8%
KDR (Homo sapiens, UniProt P35968) | 101%
PRKG2 (Homo sapiens, UniProt Q13237) | 94.8%
Cyclin-dependent kinase 1, with cyclin A (CDK1, Homo sapiens, UniProt P06493) | 78.1%
MARK2 (Homo sapiens, UniProt Q7KZI7) | 87.7%
CLK4 (Homo sapiens, UniProt Q9HAZ1) | 82.8%
Cyclin-dependent kinase 9, with cyclin K (CDK9, Homo sapiens, UniProt P50750) | 76.4%
PAK3 (Homo sapiens, UniProt O75914) | 97.6%
MAP2K1 (Homo sapiens, UniProt Q02750) | 93.7%
ROCK1 (Homo sapiens, UniProt Q13464) | 104%
MAPK14 (Homo sapiens, UniProt Q16539) | 99%

Single results of other studies
Structure (SMILES) | cell line | assay | setting | how to read | endpoint | result
c1ccc2c(-c3nn4c(-c5ccncc5)nnc4s3)c[nH]c2c1 | healthy dermal fibroblasts | 4-MUP hydrolysis | 0.5 µM, with: without ISRIB | baseline: DMSO without ISRIB | lysosomal acid lipase activity | 158% and 172% and 167% and 201%

Some of these lines once more (series 4):
SMILES | remaining compound [%]
Cc1ccc(N(C(C)C(=O)N2CCN(C)CC2)S(C)(=O)=O)cc1C (stereo not drawn) | 81.2
CN(C)CC(C)(C)CNc1ncnc2c1cnn2-c1ccccc1 | 34.3
CCN(CC)CCCNc1sc(S(C)(=O)=O)nc1S(=O)(=O)c1ccc(C)cc1 | 75.4
CN(C)S(=O)(=O)CCNCc1ccc(-c2ccccc2)cc1 | 135
